{"data": "Results of several laboratories", "target": "Serine/threonine-protein kinase 35 (STK35, Homo sapiens, UniProt Q8TDR2)"}
{"Compound": "COc1cc(Nc2nc(C)cc(-c3cnn4nc(OC)ccc34)n2)cc(C(F)(F)F)c1", "test": "binding, competition with immobilised ligand", "conditions": "1 µM", "endpoint": "remaining binding", "value": "100%"}
{"Compound": "Cc1ccc(-c2c(/C=C(\\C#N)C(=O)NC(C)C)n(CCCO)c3ncnc(N)c23)cc1", "test": "cell-free assay, competition with immobilised ligand", "conditions": "1 µM", "endpoint": "remaining binding", "value": "98%"}
{"Compound": "CCN1CCN(Cc2ccc(C(=O)Nc3ccc(C)c(NCc4cnc5[nH]ccc5c4OC)c3)cc2C(F)(F)F)CC1", "test": "binding, competition with immobilised ligand", "conditions": "1 µM", "endpoint": "remaining binding", "value": "73%"}
{"Compound": "CC(C)=CC1OC(C)(C)C2C=C3C(=O)C(Cl)=CC(O)C3C3C(O)C4OC4C(=O)C132 (stereo not drawn)", "test": "cell-free assay, competition with immobilised ligand", "conditions": "10 µM", "endpoint": "remaining binding", "value": "100%"}
{"Compound": "O=C(Cc1ccc(OCc2ccccc2)cc1)NC1(C(=O)O)CCN(C(=O)c2ccc(-c3cccc(Cl)c3)cc2)CC1", "test": "enzyme activity, inhibitor", "conditions": "10 µM", "endpoint": "activity vs control", "value": "117%"}
{"Compound": "CN1CC[C@@H](COc2cnc(C#N)cc2-c2ccn3nc(NC(=O)C4CC4)cc3c2)C1", "test": "enzyme activity, inhibitor", "conditions": "1 µM", "endpoint": "inhibition", "value": "4%"}
{"Compound": "CNC1C[S+]2CC[S+]3CC[S+](C1)[Ru-4]321([N]=C=S)[n]2c3ccc(OC)cc3c3c4c(c5cc(F)c[n+]1c5c32)C(=O)NC4=O (stereo not drawn)", "test": "KinomeScan", "conditions": "0.1 µM", "scale": "reference: untreated", "endpoint": "remaining binding", "value": "100%"}
{"Compound": "C=CC(=O)N1CCc2ccc(-n3c(=O)ccc4cnc5ccc(-c6cnn(C)c6)cc5c43)cc21", "test": "KINOMEscan", "conditions": "1 µM", "scale": "reference: DMSO control", "endpoint": "remaining binding", "value": "85%"}
{"Compound": "Cc1cnc2nc1Nc1cccc(c1)COC/C=C/COCc1cc(ccc1OCCN1CCOCC1)N2", "test": "binding, competition with immobilised ligand", "conditions": "0.1 µM", "endpoint": "remaining binding", "value": "100%"}
{"Compound": "CNC(=O)C1CCN(c2cc(C)c(F)cc2NC(=O)c2ccc(-c3cc(O)ccc3C)c(C)c2)CC1", "test": "binding, competition with immobilised ligand", "conditions": "1 µM", "endpoint": "remaining binding", "value": "95%"}
{"Compound": "COc1cc(Nc2nccc(-c3cnn4nc(OC)ccc34)n2)cc(C(F)(F)F)c1", "test": "binding, competition with immobilised ligand", "conditions": "1 µM", "endpoint": "remaining binding", "value": "100%"}
{"Compound": "C=CC(=O)N1CCCC(n2c(=O)c3ncccc3n(Cc3ccc(Oc4ccccc4)cc3)c2=O)C1 (stereo not drawn)", "test": "cell-free assay, competition with immobilised ligand", "conditions": "1 µM", "endpoint": "remaining binding", "value": "100%"}
{"Compound": "Nc1ncc2c(n1)-c1c([nH]c3ccc(C4=CCOCC4)cc13)CCC2", "test": "binding, competition with immobilised ligand", "conditions": "1 µM", "endpoint": "remaining binding", "value": "100%"}
{"Compound": "CNC(=O)C[C@H](Cc1ccc(C#N)cc1)NC(=O)c1cc(-c2ccc(CN[C@H](C)c3ccc(C)cc3)o2)ccc1Cl", "test": "enzyme activity, inhibitor", "conditions": "1 µM", "endpoint": "activity vs control", "value": "92%"}
{"Compound": "COc1c(Cl)cccc1Nc1c(-c2ccncc2C#C[C@@]2(C)CCCN2C(=O)/C=C/CN(C)C)[nH]c2c1C(=O)NCC2", "test": "binding, competition with immobilised ligand", "conditions": "3 µM", "endpoint": "remaining binding", "value": "100%"}
